Earlier results as cited in several papers.
Each line is one published result; not all experiments were run side by side. ± marks the error that the study gave.
Sequence of UniProt Q5U3Y7 (whole entry, looked up): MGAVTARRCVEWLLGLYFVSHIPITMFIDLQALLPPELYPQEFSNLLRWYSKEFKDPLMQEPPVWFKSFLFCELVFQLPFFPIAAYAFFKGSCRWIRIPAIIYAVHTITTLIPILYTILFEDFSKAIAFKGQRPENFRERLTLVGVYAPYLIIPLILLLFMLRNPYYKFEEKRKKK
Sequence of UniProt Q9R0C9 (whole entry, looked up): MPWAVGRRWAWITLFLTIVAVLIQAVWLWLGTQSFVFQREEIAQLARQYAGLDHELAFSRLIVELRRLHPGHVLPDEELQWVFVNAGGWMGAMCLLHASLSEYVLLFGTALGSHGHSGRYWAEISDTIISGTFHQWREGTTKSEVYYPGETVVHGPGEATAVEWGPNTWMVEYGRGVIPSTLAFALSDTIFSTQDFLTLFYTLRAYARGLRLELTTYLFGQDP
Sequence of UniProt P28222 (whole entry, looked up): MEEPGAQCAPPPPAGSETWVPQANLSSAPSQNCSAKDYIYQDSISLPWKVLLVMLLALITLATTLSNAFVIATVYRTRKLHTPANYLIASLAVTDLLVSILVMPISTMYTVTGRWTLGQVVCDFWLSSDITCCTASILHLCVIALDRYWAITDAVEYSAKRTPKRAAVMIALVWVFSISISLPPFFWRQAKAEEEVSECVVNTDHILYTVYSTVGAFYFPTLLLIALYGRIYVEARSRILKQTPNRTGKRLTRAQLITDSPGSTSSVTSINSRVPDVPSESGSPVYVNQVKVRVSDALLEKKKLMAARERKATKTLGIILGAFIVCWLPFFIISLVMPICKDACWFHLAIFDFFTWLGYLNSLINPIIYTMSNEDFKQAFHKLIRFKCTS
Sequence of UniProt P47746 (whole entry, looked up): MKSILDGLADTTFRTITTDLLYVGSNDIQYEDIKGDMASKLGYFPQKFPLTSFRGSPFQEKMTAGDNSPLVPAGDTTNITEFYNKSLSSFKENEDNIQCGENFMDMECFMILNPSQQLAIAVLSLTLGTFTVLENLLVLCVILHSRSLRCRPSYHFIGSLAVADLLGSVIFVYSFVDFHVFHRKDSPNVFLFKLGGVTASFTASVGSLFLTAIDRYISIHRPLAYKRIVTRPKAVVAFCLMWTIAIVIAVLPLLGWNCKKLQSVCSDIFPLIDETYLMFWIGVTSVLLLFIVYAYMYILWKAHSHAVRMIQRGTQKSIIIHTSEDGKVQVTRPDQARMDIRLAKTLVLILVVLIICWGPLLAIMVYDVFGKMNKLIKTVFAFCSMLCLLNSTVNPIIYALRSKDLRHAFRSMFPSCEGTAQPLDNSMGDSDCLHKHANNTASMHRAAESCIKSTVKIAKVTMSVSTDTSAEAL

SMILES	target	observed	action	cell line	medium	with	Ki
CNC(C)Cc1ccc2c(c1)OCO2 (stereo not drawn)	alpha2-adrenoceptor	binding			frontal cortex homogenate	[3H]p-aminoclonidine	3200 nM
CCCCCn1cc(C(=O)c2ccc(OC)c3ccccc23)c2ccccc21	cannabinoid CB1 receptor						1.2 nM
CCCCCCC(C)(C)c1ccc([C@@H]2C[C@H](O)CC[C@H]2CCCO)c(O)c1	Cannabinoid receptor 1 (Cnr1, Mus musculus, UniProt P47746)	radioligand binding			mouse brain homogenate	[3H]CP radioligand	0.26 ± 0.1 nM
CCCCCn1cc(C(=O)c2cccc3ccccc23)c2ccccc21	cannabinoid CB1 receptor	binding					9 ± 5 nM
CCCCCn1cc(C(=O)c2ccc(CC)c3ccccc23)c2ccccc21	cannabinoid CB1 receptor						0.46 nM
C[C@]12CCC(=O)C=C1CC[C@@H]1[C@@H]2CC[C@]2(C)C(=O)CC[C@@H]12	human AKR1D1		substrate				4300 ± 1300 nM
CCCCCn1cc(C(=O)Cc2ccccc2C)c2ccccc21	cannabinoid CB2 receptor	binding					146 ± 36 nM
C[C@]12CC[C@H]3[C@@H](CCC4=CC(=O)CC[C@@]43C)[C@@H]1CC[C@@H]2O	human AKR1D1		substrate				14500 ± 5800 nM
CCCCCn1cc(C(=O)c2cccc3ccccc23)c2ccccc21	cannabinoid CB1 receptor						9 nM
C=CCN(CC=C)CCc1c[nH]c2ccc(F)cc12	Sigma non-opioid intracellular receptor 1 (Sigmar1, Rattus norvegicus, UniProt Q9R0C9)						86 nM
COC(=O)[C@H]1C(c2ccc(I)cc2)C[C@@H]2CC[C@H]1N2C (stereo partly drawn)	Transporter (Slc6a2, Rattus norvegicus, UniProt Q63380)	reuptake	inhibitor		rat brain synaptosomes		5.89 ± 0.53 nM
C=CCN(CC=C)CCc1c[nH]c2ccc(Br)cc12	Sigma intracellular receptor 2 (Tmem97, Rattus norvegicus, UniProt Q5U3Y7)						224 nM
Oc1ccc2c3c1O[C@H]1c4[nH]c5c(c4C[C@@]4(O)[C@@H](C2)N(CC2CC2)CC[C@]314)C[C@@]1(O)[C@H]2Cc3ccc(O)c4c3[C@@]1(CCN2CC1CC1)[C@H]5O4	kappa opioid receptor						0.09 to 1.09 nM
C=CCN(CC=C)CCc1c[nH]c2ccccc12	5-hydroxytryptamine receptor 1B (HTR1B, Homo sapiens, UniProt P28222)	binding		cloned human receptor		[3H]GR125743	> 10000 nM
CNC1=Nc2ccc(Cl)cc2C(c2ccccc2)=[N+]([O-])C1	GABA-A receptor benzodiazepine site (zebrafish)				zebrafish whole brain membranes	[3H]flunitrazepam	143 ± 55 nM

Some of these lines once more:
SMILES	target	observed	action	cell line	medium	with	Ki
CCCCCn1cc(C(=O)c2ccc(OC)c3ccccc23)c2ccccc21	cannabinoid CB1 receptor						1.2 nM
